Results from different studies.
Parts stem from different laboratories: compare values within a part only.
UniProt P07949, sequence (whole entry, unmodified, looked up): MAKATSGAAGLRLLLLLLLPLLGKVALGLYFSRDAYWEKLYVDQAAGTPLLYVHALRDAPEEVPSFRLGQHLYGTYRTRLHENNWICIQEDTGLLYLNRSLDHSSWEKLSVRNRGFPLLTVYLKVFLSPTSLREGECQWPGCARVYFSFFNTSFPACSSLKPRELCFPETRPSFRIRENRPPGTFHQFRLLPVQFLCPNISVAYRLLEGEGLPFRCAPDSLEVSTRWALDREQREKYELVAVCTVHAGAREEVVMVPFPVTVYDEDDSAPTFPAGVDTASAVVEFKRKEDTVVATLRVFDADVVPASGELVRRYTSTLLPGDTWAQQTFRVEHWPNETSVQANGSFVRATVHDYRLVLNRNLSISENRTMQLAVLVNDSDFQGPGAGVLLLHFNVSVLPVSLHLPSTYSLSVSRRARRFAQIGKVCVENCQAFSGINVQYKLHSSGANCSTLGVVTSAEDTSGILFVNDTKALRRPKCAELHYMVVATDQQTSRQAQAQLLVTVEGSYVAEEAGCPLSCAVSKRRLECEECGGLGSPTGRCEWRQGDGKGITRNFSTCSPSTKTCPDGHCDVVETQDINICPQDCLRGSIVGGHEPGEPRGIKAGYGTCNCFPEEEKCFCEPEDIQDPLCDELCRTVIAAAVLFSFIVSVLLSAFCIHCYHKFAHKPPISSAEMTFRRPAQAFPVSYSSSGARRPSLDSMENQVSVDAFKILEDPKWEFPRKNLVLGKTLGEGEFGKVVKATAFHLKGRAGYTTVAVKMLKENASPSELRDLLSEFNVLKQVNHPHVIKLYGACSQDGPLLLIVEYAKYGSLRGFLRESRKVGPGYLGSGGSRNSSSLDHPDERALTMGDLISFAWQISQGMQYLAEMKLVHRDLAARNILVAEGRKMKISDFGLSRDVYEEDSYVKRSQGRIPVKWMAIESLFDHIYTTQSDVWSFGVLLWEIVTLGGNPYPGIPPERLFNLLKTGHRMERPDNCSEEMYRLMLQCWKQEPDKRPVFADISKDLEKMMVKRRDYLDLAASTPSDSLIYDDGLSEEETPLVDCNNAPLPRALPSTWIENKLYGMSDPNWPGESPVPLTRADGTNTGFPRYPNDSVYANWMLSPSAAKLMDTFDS
UniProt P49137, sequence (whole entry, looked up): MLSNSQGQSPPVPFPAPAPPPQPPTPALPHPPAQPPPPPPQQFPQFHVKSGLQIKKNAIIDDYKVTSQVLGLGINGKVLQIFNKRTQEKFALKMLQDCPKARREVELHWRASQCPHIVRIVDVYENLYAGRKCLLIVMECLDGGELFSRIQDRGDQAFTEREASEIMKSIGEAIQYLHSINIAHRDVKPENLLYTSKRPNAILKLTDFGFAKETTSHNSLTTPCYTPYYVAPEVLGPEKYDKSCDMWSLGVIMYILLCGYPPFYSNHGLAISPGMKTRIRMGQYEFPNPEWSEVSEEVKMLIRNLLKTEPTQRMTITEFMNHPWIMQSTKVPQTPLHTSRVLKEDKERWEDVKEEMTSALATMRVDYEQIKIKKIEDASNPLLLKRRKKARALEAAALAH
UniProt Q9P1W9, sequence (whole entry, looked up): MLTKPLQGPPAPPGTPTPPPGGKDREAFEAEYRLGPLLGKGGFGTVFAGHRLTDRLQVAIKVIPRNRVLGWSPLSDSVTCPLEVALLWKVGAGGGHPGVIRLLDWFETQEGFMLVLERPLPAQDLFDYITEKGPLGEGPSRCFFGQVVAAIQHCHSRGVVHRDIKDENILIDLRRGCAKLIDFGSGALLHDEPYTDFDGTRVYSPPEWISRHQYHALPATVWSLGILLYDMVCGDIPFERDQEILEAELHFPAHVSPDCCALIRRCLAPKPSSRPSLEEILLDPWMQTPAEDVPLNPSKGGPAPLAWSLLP
UniProt O94921, sequence (whole entry, looked up): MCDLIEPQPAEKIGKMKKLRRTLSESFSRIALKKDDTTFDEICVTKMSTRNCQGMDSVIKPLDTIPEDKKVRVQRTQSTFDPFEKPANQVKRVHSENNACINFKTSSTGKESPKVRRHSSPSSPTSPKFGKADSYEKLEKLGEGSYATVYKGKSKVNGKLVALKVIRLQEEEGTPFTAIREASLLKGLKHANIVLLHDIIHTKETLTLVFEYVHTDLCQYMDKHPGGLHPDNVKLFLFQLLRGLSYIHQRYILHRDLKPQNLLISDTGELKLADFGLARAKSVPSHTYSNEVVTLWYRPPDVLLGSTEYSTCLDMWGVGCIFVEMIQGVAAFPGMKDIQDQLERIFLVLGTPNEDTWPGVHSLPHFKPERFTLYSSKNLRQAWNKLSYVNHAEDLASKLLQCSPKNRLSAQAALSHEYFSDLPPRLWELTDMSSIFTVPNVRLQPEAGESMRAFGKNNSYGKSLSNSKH
UniProt P07948, sequence (whole entry, looked up): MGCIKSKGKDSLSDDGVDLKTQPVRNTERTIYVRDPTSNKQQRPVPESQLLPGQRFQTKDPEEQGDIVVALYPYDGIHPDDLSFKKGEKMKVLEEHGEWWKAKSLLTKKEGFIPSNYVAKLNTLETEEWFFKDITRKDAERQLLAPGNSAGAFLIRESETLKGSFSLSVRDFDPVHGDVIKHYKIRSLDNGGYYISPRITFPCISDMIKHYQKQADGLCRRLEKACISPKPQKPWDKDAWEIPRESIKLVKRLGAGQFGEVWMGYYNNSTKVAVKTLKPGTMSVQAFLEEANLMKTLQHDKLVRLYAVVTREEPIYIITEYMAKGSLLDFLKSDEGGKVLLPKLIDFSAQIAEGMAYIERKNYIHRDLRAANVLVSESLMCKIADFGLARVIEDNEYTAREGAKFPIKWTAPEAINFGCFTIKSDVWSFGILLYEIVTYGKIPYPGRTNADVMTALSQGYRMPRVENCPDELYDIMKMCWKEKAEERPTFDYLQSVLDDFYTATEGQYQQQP
UniProt P51955, sequence (whole entry, looked up): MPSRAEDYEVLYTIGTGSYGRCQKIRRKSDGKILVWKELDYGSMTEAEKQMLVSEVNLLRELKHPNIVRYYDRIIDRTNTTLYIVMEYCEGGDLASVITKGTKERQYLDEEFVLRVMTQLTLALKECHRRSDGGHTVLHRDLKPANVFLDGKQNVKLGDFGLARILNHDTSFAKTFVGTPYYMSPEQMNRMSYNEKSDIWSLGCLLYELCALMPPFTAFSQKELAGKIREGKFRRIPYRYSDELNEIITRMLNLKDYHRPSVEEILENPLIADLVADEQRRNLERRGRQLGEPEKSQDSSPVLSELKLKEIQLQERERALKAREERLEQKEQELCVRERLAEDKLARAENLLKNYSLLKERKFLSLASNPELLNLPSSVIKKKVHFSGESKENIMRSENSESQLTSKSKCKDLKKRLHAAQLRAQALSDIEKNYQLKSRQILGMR

Sample 1
Structure (SMILES): C[C@@H]1CN(c2ccc(-c3cc(C(=O)NCCOCCOCCOCCOCCNC(=O)/C=C/c4[nH]cc(C(=O)N[C@@H](CC(N)=O)c5ccc(F)c(Cl)c5)c4-c4ccc(Cl)cc4F)ccc3F)cc2NC(=O)c2c[nH]c(=O)cc2C(F)(F)F)C[C@H](C)N1C
Effect on: thermal unfolding
Method: differential scanning fluorimetry
Concentration: 5.5 µM
Reading: higher = more unfolded
WDR5: WD repeat-containing protein 5 (WDR5, Homo sapiens, UniProt P61964)
DCAF1: DDB1- and CUL4-associated factor 1 (DCAF1, Homo sapiens, UniProt Q9Y4B6)
UniProt Q9Y4B6, sequence (whole entry, looked up): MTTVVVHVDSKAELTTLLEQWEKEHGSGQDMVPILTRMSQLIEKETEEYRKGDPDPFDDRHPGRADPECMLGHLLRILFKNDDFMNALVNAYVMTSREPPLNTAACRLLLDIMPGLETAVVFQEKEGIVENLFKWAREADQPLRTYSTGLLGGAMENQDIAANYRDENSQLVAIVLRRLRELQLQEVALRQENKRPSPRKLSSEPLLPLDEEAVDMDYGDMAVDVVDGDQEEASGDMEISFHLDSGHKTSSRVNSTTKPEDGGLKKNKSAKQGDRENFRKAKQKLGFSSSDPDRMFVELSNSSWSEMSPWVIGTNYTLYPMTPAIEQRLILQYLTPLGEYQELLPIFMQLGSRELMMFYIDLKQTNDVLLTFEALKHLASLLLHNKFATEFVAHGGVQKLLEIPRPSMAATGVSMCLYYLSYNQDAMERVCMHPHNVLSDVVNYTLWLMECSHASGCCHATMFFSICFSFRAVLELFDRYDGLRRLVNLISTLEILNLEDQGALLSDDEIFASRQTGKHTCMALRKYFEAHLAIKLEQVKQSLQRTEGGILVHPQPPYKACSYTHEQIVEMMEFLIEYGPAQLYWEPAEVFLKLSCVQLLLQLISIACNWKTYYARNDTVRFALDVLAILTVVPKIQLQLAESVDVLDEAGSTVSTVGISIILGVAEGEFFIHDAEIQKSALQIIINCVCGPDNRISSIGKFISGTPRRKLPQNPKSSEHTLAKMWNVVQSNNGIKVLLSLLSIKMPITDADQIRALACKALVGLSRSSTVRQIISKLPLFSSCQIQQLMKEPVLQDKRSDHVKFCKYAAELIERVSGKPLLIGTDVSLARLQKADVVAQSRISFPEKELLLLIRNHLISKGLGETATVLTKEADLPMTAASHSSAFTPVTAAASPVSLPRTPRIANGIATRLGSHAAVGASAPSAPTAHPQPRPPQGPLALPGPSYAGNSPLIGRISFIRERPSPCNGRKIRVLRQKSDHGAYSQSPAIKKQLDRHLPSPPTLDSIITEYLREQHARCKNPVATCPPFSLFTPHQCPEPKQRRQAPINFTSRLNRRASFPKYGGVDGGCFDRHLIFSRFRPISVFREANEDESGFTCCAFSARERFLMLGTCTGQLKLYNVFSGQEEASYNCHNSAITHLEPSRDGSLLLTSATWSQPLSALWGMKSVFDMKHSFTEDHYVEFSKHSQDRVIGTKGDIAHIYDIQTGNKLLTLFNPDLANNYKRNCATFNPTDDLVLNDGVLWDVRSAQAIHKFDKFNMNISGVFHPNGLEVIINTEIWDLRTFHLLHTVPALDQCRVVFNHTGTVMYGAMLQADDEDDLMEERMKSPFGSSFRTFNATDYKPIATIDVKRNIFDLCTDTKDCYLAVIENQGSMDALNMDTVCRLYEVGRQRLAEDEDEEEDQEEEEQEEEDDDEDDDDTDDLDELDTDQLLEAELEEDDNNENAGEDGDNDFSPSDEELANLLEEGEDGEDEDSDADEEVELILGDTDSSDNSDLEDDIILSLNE
target | temperature | SYPRO Orange fluorescence [a.u.]
WDR5 | 28.6 °C | 12800
WDR5 | 80.81 °C | 42700
DCAF1 | 77.41 °C | 47600
DCAF1 | 51.6 °C | 16500
DCAF1 | 81.21 °C | 43800
DCAF1 | 32 °C | 9730
DCAF1 | 66.01 °C | 59400
WDR5 | 40 °C | 13800
DCAF1 | 33.6 °C | 9840
DCAF1 | 53.21 °C | 18200
DCAF1 | 90.81 °C | 34200

Sample 2
Compound: CC[C@@]1(c2cccc(-c3c(F)cncc3OC)c2)C2=C(Nc3n[nH]cc31)[C@H](F)C(C)(C)CC2=O (single isomer, unassigned)
Concentration: 1 µM
target | effect on | method | baseline | remaining binding [%]
Serine/threonine-protein kinase B-raf (BRAF, Homo sapiens, UniProt P15056) | kinase binding | KINOMEscan | DMSO control | 83
Maternal embryonic leucine zipper kinase (MELK, Homo sapiens, UniProt Q14680) | binding | competition with immobilised ligand | – | 100
Dual specificity protein kinase CLK2 (CLK2, Homo sapiens, UniProt P49760) | binding | competition with immobilised ligand | – | 53
Serine/threonine-protein kinase 16 (STK16, Homo sapiens, UniProt O75716) | binding | competition with immobilised ligand | – | 78
Serine/threonine-protein kinase WNK1 (WNK1, Homo sapiens, UniProt Q9H4A3) | binding | competition with immobilised ligand | – | 81
Proto-oncogene tyrosine-protein kinase receptor Ret (RET, Homo sapiens, UniProt P07949, M918T) | binding | competition with immobilised ligand | – | 78
Proto-oncogene tyrosine-protein kinase receptor Ret (RET, Homo sapiens, UniProt P07949, V804M) | kinase binding | KINOMEscan | DMSO control | 100
Serine/threonine-protein kinase Nek2 (NEK2, Homo sapiens, UniProt P51955) | binding | competition with immobilised ligand | – | 93
FLT3 ITD/F691L, human | – | KINOMEscan | – | 65
Serine/threonine-protein kinase NLK (NLK, Homo sapiens, UniProt Q9UBE8) | kinase binding | KINOMEscan | DMSO control | 100
MAP kinase-activated protein kinase 2 (MAPKAPK2, Homo sapiens, UniProt P49137) | kinase binding | KINOMEscan | DMSO control | 80
Tyrosine-protein kinase receptor TYRO3 (TYRO3, Homo sapiens, UniProt Q06418) | binding | competition with immobilised ligand | – | 100
Wee1-like protein kinase 2 (WEE2, Homo sapiens, UniProt P0C1S8) | kinase binding | KINOMEscan | DMSO control | 74
Serine/threonine-protein kinase D2 (PRKD2, Homo sapiens, UniProt Q9BZL6) | binding | competition with immobilised ligand | – | 100
Ephrin type-B receptor 3 (EPHB3, Homo sapiens, UniProt P54753) | kinase binding | KINOMEscan | DMSO control | 100
Ephrin type-A receptor 1 (EPHA1, Homo sapiens, UniProt P21709) | binding | competition with immobilised ligand | – | 92

Sample 3
Structure (SMILES): O=C(Nc1ccccc1)Nc1cccc(Oc2ccc3nccn3n2)c1
Concentration: 1 µM
target | effect on | method | remaining binding [%]
Uncharacterized serine/threonine-protein kinase SBK3 (SBK3, Homo sapiens, UniProt P0C264) | binding | – | 60
Tyrosine-protein kinase ABL1 (ABL1, Homo sapiens, UniProt P00519, T315I) | – | – | 100
Mast/stem cell growth factor receptor Kit (KIT, Homo sapiens, UniProt P10721, T670I/V559D) | binding | – | 80
MAP kinase-activated protein kinase 5 (MAPKAPK5, Homo sapiens, UniProt Q8IW41) | binding | – | 100
Ribosomal protein S6 kinase alpha-2, N-terminal kinase domain (RPS6KA2, Homo sapiens, UniProt Q15349) | binding | competition with immobilised ligand | 91
Receptor-type tyrosine-protein kinase FLT3 (FLT3, Homo sapiens, UniProt P36888, D835Y) | binding | – | 100
Serine/threonine-protein kinase PLK3 (PLK3, Homo sapiens, UniProt Q9H4B4) | binding | – | 100
Tyrosine-protein kinase SYK (SYK, Homo sapiens, UniProt P43405) | binding | competition with immobilised ligand | 88
Cyclin-dependent kinase 9 (CDK9, Homo sapiens, UniProt P50750) | binding | – | 100
Tyrosine-protein kinase JAK1 (JAK1, Homo sapiens, UniProt P23458) | binding | – | 95
Cyclin-dependent kinase 14 (CDK14, Homo sapiens, UniProt O94921) | binding | competition with immobilised ligand | 100
Proto-oncogene tyrosine-protein kinase receptor Ret (RET, Homo sapiens, UniProt P07949, V804M) | binding | – | 100
Rhodopsin kinase GRK7 (GRK7, Homo sapiens, UniProt Q8WTQ7) | binding | – | 100

Sample 4
Structure (SMILES): COc1cc(-c2nc3ccc(C(=O)NCCCN(C)C)cc3n2C2CCC2)cc(OC)c1OC
Effect on: binding
Method: competition with immobilised ligand
Concentration: 1 µM
target | remaining binding
MAP kinase-activated protein kinase 2 (MAPKAPK2, Homo sapiens, UniProt P49137) | 100%
TGF-beta receptor type-1 (TGFBR1, Homo sapiens, UniProt P36897) | 67%
Receptor-type tyrosine-protein kinase FLT3 (FLT3, Homo sapiens, UniProt P36888, D835H) | 93%
Serine/threonine-protein kinase ICK (CILK1, Homo sapiens, UniProt Q9UPZ9) | 74%
Serine/threonine-protein kinase VRK2 (VRK2, Homo sapiens, UniProt Q86Y07) | 89%
Tyrosine-protein kinase JAK3, JH1 (JAK3, Homo sapiens, UniProt P52333) | 58%
Tyrosine-protein kinase Lyn (LYN, Homo sapiens, UniProt P07948) | 81%
Phosphatidylinositol 4-kinase beta (PI4KB, Homo sapiens, UniProt Q9UBF8) | 79%
BMP-2-inducible protein kinase (BMP2K, Homo sapiens, UniProt Q9NSY1) | 67%
Serine/threonine-protein kinase WNK2 (WNK2, Homo sapiens, UniProt Q9Y3S1) | 92%
Myosin light chain kinase family member 4 (MYLK4, Homo sapiens, UniProt Q86YV6) | 96%
Cyclin-dependent kinase 13 (CDK13, Homo sapiens, UniProt Q14004) | 61%
Serine/threonine-protein kinase 38-like (STK38L, Homo sapiens, UniProt Q9Y2H1) | 96%
Ephrin type-B receptor 6 (EPHB6, Homo sapiens, UniProt O15197) | 100%
Protein kinase C eta type (PRKCH, Homo sapiens, UniProt P24723) | 79%
Cyclin-dependent kinase 4 (CDK4, Homo sapiens, UniProt P11802) | 100%
Tyrosine-protein kinase ITK/TSK (ITK, Homo sapiens, UniProt Q08881) | 83%
Serine/threonine-protein kinase pim-2 (PIM2, Homo sapiens, UniProt Q9P1W9) | 91%
Activated CDC42 kinase 1 (TNK2, Homo sapiens, UniProt Q07912) | 100%

For quick reference, copied from above (sample 4):
target | remaining binding
Tyrosine-protein kinase JAK3, JH1 (JAK3, Homo sapiens, UniProt P52333) | 58%
Tyrosine-protein kinase Lyn (LYN, Homo sapiens, UniProt P07948) | 81%
Phosphatidylinositol 4-kinase beta (PI4KB, Homo sapiens, UniProt Q9UBF8) | 79%
BMP-2-inducible protein kinase (BMP2K, Homo sapiens, UniProt Q9NSY1) | 67%
Serine/threonine-protein kinase WNK2 (WNK2, Homo sapiens, UniProt Q9Y3S1) | 92%
